Earlier results as cited in several papers.
Lines come from different studies, so protocols differ. ± marks the error that the study gave.
Chain of UniProt Q6PHR2 (whole entry, looked up): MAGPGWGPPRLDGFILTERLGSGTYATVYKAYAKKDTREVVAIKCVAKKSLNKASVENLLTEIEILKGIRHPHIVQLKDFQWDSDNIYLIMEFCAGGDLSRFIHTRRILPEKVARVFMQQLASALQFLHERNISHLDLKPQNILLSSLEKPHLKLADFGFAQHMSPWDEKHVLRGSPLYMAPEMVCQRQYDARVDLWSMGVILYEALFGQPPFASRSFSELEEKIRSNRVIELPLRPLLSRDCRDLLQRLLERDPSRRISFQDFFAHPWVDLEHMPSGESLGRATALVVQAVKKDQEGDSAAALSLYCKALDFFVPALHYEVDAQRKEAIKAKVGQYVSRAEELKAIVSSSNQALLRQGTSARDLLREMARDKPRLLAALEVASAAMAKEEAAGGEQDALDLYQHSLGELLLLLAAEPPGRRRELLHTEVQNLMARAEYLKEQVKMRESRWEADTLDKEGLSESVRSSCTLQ

For `Cc1cc(C[C@@H](NC(=O)N2CCC(c3cc4ccccc4[nH]c3=O)CC2)C(=O)N2CCN(C3CCN(C)CC3)CC2)cc2cn[nH]c12`, the fraction unbound was 0.335 (plasma; in vitro).
`Cc1c(C)c2c(c(C)c1O)CCC(C)(COc1ccc(CC3SC(=O)NC3=O)cc1)O2` (stereo not shown) gave a fraction unbound of 0.01 (plasma; literature value).
For `CCN1CCC[C@H]1CNC(=O)c1c(O)c(Cl)cc(Cl)c1OC`, the fraction unbound was 37% (plasma).
`Cc1ccc(NC(=O)c2ccc(CN3CCN(C)CC3)cc2)cc1Nc1nc(-c2cccnc2)cs1` gave a fraction unbound of 0.07 (plasma; estimated).
`C=CC(=O)Nc1cc(Nc2nccc(-c3cn(C)c4ccccc34)n2)c(OC)cc1N(C)CCN(C)C` has a fraction unbound of 3.4% (human plasma).
With `C=CC[C@@H]1/C=C(\C)C[C@H](C)C[C@H](OC)[C@H]2O[C@@](O)(C(=O)C(=O)N3CCCC[C@H]3C(=O)O[C@H](/C(C)=C/[C@@H]3CC[C@@H](O)[C@H](OC)C3)[C@H](C)[C@@H](O)CC1=O)[C@H](C)C[C@@H]2OC` the fraction unbound was 0.012 ± 0.0012 (plasma).
The fraction unbound of `C#Cc1cccc(Nc2ncnc3cc(OCCOC)c(OCCOC)cc23)c1` is reported as 0.045 (plasma).
With `NC(=O)N1c2ccccc2CC(O)c2ccccc21` (stereo not shown) the fraction unbound was 0.6 (plasma).
The remaining activity of `Nc1cc(C(F)(F)F)c(-c2nc(N3CCOCC3)nc(N3CCOCC3)n2)cn1` is reported as 100% (Serine/threonine-protein kinase ULK3 (ULK3, Homo sapiens, UniProt Q6PHR2); enzyme activity; 10 µM; baseline: untreated).
With `Cc1nn(C)cc1S(=O)(=O)NC(=O)c1ccc(-n2ccc(OCC(C)(C)C(F)(F)F)n2)nc1N1C[C@@H](C)CC1(C)C` the fraction unbound was 0.399 (microsomal incubation; CYP2C8 Ki).
The fraction unbound of `COc1cccc2c1C(=O)c1c(O)c3c(c(O)c1C2=O)C[C@@](O)(C(=O)CO)C[C@@H]3O[C@H]1C[C@H](N)[C@H](O)[C@H](C)O1` is reported as 0.3 (plasma; literature value).
`C[C@@H](Oc1ccc(S(C)(=O)=O)cc1C(=O)N1C[C@@H]2C[C@]2(c2cc(C(F)(F)F)on2)C1)C(F)(F)F` gave a fraction unbound of 0.196 (plasma).
`CC(C)(C)c1cc(C(C)(C)C)c(NC(=O)c2c[nH]c3ccccc3c2=O)cc1O` gave a fraction unbound of 0.001 (pregnant women, first trimester, 1-12 weeks gestation, maternal plasma).
`O=C(c1ccc(C#Cc2cccc(F)c2)nc1)N1CCC(O)CC1` has a fraction unbound of 0.0956 (brain).
The fraction unbound of `CC(C)(CO)c1cc2cc(NC(=O)C3(c4ccc5c(c4)OC(F)(F)O5)CC3)c(F)cc2n1C[C@@H](O)CO` is reported as 0.876 (microsomal incubation; CYP2C19 Ki).
`Cc1c(C(=O)O)ccc2c3n(nc12)[C@@H]1[C@H](C3)N(CC2CC2)[C@@]2(C(=O)Nc3cc(Cl)ccc32)[C@H]1c1cccc(Cl)c1F` gave a fraction unbound of 0.0017 (human glioblastoma tissue).
